{"data": "Assay results gathered from unrelated publications", "note": "A part holds a random share of what one study measured."}
{"data": "Study 1", "organism": "SARS-CoV-2 Wuhan spike VSV pseudovirus", "observed": "pseudovirus entry", "tested at": "concentration not given"}
{"SMILES": "O=C(CN(Cc1ccco1)S(=O)(=O)c1ccccc1F)Nc1ccc(N2CCCCC2)cc1", "inhibition": "44%"}
{"SMILES": "CCc1cc2c(N3CCCC(C(=O)N4CCN(c5ccccn5)CC4)C3)ncnc2s1 (stereo not shown)", "inhibition": "43%"}
{"SMILES": "CN1CCN(Cc2c(O)c(Cl)cc3c4c(c(=O)oc23)CCC4)CC1", "inhibition": "53%"}
{"SMILES": "O=C(NCCN1CCCCC1)C1CCc2ncc(-c3ccc(F)cc3)n2C1 (stereo not shown)", "inhibition": "40%"}
{"SMILES": "Cc1nc(-c2ccc(C(=O)NCCCc3ccccc3)cc2)cs1", "inhibition": "52%"}
{"data": "Other studies, line by line", "rep nsp14": "Replicase polyprotein 1ab, nsp14 (rep, Severe acute respiratory syndrome coronavirus 2, UniProt P0DTD1)", "rep papain-like protease": "Replicase polyprotein 1ab, papain-like protease (rep, Severe acute respiratory syndrome coronavirus 2, UniProt P0DTD1)"}
{"Compound": "C[C@H](CCC(=O)NCCS(=O)(=O)[O-])[C@H]1CC[C@H]2[C@@H]3[C@@H](O)C[C@@H]4C[C@H](O)CC[C@]4(C)[C@H]3CC[C@]12C.[Na+]", "target": "Replicase polyprotein 1ab, nsp12 RdRp (rep, Severe acute respiratory syndrome coronavirus 2, UniProt P0DTD1)", "assay": "binding, biolayer interferometry", "setting": "concentration not given", "endpoint": "BLI response", "value": "0 nm"}
{"Compound": "Cn1c[n+]([C@@H]2O[C@H](COP(=O)(O)OP(=O)([O-])OP(=O)(O)OC[C@H]3O[C@@H](n4cnc5c(=O)[nH]c(N)nc54)[C@H](O)[C@@H]3O)[C@@H](O)[C@H]2O)c2nc(N)[nH]c(=O)c21", "target": "rep nsp14", "assay": "thermal shift", "setting": "20 µM", "endpoint": "ΔTm", "value": "0.7 °C"}
{"Compound": "C[C@H](NC(=O)C(=O)Nc1ccccc1C(C)(C)C)C(=O)N[C@@H](CC(=O)O)C(=O)COc1c(F)c(F)cc(F)c1F", "target": "rep papain-like protease", "setting": "concentration not given, C111S mutant", "how to read": "relative to: positive control", "endpoint": "activity", "value": "15.5%"}
{"Compound": "Cc1ccc(NS(=O)(=O)c2cccc(C(=O)NC3CCN(c4ncnc5[nH]cnc45)CC3)c2)cc1", "target": "rep nsp14", "setting": "50 µM", "endpoint": "inhibition", "value": "66.8%"}
{"Compound": "COc1cc2c(cc1OC)-c1c(C)c3ccc(OC)c(OC)c3c[n+]1CC2", "target": "rep papain-like protease", "setting": "concentration not given, C111S mutant", "how to read": "relative to: positive control", "endpoint": "activity", "value": "21.8%"}
{"note": "Excerpt of the above (study 1):"}
{"SMILES": "CN1CCN(Cc2c(O)c(Cl)cc3c4c(c(=O)oc23)CCC4)CC1", "inhibition": "53%"}
{"SMILES": "O=C(NCCN1CCCCC1)C1CCc2ncc(-c3ccc(F)cc3)n2C1 (stereo not shown)", "inhibition": "40%"}
